Experimental data from different studies.
Protocols differ between the studies behind these lines. Numbers after ± are the reported error.
Read-out: binding
PTH1R: Parathyroid hormone/parathyroid hormone-related peptide receptor (PTH1R, Homo sapiens, UniProt Q03431)
UniProt Q03431, sequence (whole entry, looked up): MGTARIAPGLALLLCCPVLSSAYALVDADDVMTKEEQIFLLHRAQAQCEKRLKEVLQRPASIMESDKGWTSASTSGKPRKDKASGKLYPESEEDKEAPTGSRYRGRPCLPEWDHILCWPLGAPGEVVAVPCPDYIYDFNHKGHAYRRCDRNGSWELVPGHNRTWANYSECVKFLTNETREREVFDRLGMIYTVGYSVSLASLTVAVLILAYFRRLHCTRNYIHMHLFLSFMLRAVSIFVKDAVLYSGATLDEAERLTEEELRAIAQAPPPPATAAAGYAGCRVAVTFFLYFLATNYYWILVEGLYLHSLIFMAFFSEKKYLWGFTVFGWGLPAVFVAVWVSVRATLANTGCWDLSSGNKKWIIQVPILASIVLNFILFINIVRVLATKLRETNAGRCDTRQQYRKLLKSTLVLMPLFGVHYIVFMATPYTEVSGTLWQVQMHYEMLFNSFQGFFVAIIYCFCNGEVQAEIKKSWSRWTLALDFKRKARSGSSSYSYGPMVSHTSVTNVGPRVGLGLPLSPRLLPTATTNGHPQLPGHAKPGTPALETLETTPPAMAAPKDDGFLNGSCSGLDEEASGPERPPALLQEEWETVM
ACTA1: Actin, alpha skeletal muscle (ACTA1, Oryctolagus cuniculus, UniProt P68135)
Alpha-mannosidase: Alpha-mannosidase (Canavalia ensiformis, UniProt C0HJB3)
UniProt C0HJB3, sequence (whole entry, looked up): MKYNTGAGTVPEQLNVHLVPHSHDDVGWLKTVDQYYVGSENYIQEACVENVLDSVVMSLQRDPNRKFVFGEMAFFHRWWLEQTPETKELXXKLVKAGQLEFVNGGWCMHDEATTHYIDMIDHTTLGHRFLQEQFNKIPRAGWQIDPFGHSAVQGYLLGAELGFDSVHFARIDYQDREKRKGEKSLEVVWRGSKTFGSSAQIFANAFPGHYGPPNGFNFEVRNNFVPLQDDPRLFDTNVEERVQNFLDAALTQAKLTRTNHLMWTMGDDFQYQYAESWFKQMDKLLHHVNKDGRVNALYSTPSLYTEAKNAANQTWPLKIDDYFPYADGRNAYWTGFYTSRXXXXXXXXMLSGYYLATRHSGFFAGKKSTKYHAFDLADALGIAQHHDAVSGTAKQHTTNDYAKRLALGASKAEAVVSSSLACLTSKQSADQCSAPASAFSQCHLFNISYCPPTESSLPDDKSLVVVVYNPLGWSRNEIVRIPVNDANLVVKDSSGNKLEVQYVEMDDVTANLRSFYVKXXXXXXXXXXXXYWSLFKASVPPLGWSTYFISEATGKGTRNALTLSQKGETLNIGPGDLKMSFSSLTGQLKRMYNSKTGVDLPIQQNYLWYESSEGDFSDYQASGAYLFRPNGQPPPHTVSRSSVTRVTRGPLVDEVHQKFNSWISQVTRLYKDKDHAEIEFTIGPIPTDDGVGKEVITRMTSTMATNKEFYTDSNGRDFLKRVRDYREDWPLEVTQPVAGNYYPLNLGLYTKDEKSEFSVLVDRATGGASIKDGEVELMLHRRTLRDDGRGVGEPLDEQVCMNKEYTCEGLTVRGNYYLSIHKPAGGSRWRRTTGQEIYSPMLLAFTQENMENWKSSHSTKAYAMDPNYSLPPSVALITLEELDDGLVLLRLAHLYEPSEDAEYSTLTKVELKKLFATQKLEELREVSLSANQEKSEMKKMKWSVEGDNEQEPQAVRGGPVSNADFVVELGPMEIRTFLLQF
UniProt Q7XKC8, sequence (whole entry, looked up): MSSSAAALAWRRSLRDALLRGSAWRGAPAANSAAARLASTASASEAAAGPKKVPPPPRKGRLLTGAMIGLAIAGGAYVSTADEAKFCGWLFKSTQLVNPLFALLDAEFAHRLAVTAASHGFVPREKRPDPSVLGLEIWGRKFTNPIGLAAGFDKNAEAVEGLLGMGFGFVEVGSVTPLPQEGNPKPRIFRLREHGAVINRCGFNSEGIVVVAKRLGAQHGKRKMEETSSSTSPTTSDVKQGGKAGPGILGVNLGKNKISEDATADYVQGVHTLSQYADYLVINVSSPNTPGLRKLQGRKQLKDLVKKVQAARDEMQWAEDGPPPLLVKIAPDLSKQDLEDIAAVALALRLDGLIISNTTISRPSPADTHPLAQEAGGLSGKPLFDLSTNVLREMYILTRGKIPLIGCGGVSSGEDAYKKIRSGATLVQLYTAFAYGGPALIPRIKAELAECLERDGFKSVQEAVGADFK
UniProt Q07021, sequence (whole entry, looked up): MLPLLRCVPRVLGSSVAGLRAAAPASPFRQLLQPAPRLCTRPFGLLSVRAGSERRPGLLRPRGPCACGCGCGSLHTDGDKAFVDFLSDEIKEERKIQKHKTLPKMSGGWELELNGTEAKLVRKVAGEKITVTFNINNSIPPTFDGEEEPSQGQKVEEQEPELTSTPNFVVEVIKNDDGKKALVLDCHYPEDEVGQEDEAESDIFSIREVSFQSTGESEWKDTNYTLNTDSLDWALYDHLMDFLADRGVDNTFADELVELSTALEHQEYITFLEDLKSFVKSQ

CC[C@H](C)[C@H](NC(=O)[C@H](CCC(=O)O)NC(=O)[C@H](CO)NC(=O)[C@@H](N)C(C)C)C(=O)N[C@@H](CCC(N)=O)C(=O)N[C@@H](CC(C)C)C(=O)N[C@@H](CCSC)C(=O)N[C@@H](Cc1c[nH]cn1)C(=O)N[C@@H](CC(N)=O)C(=O)N[C@@H](CC(C)C)C(=O)NCC(=O)N[C@@H](CCCCN)C(=O)N[C@@H](Cc1c[nH]cn1)C(=O)N[C@@H](CC(C)C)C(=O)N[C@@H](CC(N)=O)C(=O)N[C@@H](CO)C(=O)N[C@@H](CCSC)C(=O)N[C@@H](CCC(=O)O)C(=O)N[C@@H](CCCNC(=N)N)C(=O)N[C@H](C(=O)N[C@@H](CCC(=O)O)C(=O)N[C@@H](Cc1c[nH]c2ccccc12)C(=O)N[C@@H](CC(C)C)C(=O)N[C@@H](CCCNC(=N)N)C(=O)N[C@@H](CCCCN)C(=O)N[C@@H](CCCCN)C(=O)N[C@@H](CC(C)C)C(=O)N[C@@H](CCC(N)=O)C(=O)N[C@@H](CC(=O)O)C(=O)N[C@H](C(=O)N[C@@H](Cc1c[nH]cn1)C(=O)N[C@@H](CC(N)=O)C(=O)N[C@@H](Cc1ccccc1)C(=O)N[C@@H](CCCCNC(=O)c1ccc2c(c1)C1(OC2=O)c2ccc(N(C)C)cc2Oc2cc(N(C)C)ccc21)C(N)=O)C(C)C)C(C)C — kon (PTH1R; NanoBRET; HEK293 stably expressing receptor; room temperature, 0.02% sodium azide, added: 5 µM coelenterazine h): 250000 ± 170000 M⁻¹ s⁻¹
CN1C[C@H](c2cccc(C(F)(F)F)c2)[C@@H](C(=O)Nc2ccccc2F)C1=O — kon (PYRD (Oryza sativa, UniProt Q7XKC8); SPR): 6.16e+06 M⁻¹ s⁻¹
CC(C)[C@H](NC(=O)[C@H](CCCCN)NC(=O)[C@H](C)NC(=O)[C@H](CC(N)=O)NC(=O)CNC(=O)[C@H](CCCNC(=N)N)NC(=O)[C@@H](NC(=O)[C@H](CCCCN)NC(=O)[C@@H](N)CO)[C@@H](C)O)C(=O)N[C@H](C(=O)NCC(=O)N[C@@H](CCCNC(=N)N)C(=O)N[C@@H](Cc1c[nH]c2ccccc12)C(=O)N[C@@H](CCCCN)C(=O)O)[C@@H](C)O — kon (ACTA1; SPR; pH 7): 3810 M⁻¹ s⁻¹
C[C@@H](O)[C@@H]1NC(=O)[C@H](CCCNC(=N)N)NC(=O)[C@H](CCCCN)NC(=O)[C@H](CC(N)=O)NC(=O)CNC(=O)[C@@H](N)C[Se][Se]C[C@@H](C(=O)O)NC(=O)CNC(=O)[C@H](CCCNC(=N)N)NC1=O — kon (C1QBP (Homo sapiens, UniProt Q07021); SPR): 30900 M⁻¹ s⁻¹
CSCC[C@H](NC(=O)[C@H](CC(C)C)NC(=O)[C@H](CCC(N)=O)NC(=O)[C@H](Cc1c[nH]cn1)NC(=O)[C@H](CCC(=O)O)NC(=O)[C@H](CO)NC(=O)[C@@H](NC(=O)[C@@H](N)CO)C(C)C)C(=O)N[C@@H](Cc1c[nH]cn1)C(=O)N[C@@H](CC(N)=O)C(=O)N[C@@H](CC(C)C)C(=O)NCC(=O)N[C@@H](CCCCN)C(=O)N[C@@H](Cc1c[nH]cn1)C(=O)N[C@@H](CC(C)C)C(=O)N[C@@H](CC(N)=O)C(=O)N[C@@H](CO)C(=O)N[C@@H](CCSC)C(=O)N[C@@H](CCC(=O)O)C(=O)N[C@@H](CCCNC(=N)N)C(=O)N[C@H](C(=O)N[C@@H](CCC(=O)O)C(=O)N[C@@H](Cc1c[nH]c2ccccc12)C(=O)N[C@@H](CC(C)C)C(=O)N[C@@H](CCCNC(=N)N)C(=O)N[C@@H](CCCCN)C(=O)N[C@@H](CCCCN)C(=O)N[C@@H](CC(C)C)C(=O)N[C@@H](CCC(N)=O)C(=O)N[C@@H](CC(=O)O)C(=O)N[C@H](C(=O)N[C@@H](Cc1c[nH]cn1)C(=O)N[C@@H](CC(N)=O)C(=O)N[C@@H](Cc1ccccc1)C(=O)N[C@@H](CCCCNC(=O)c1ccc2c(c1)C1(OC2=O)c2ccc(N(C)C)cc2Oc2cc(N(C)C)ccc21)C(N)=O)C(C)C)C(C)C — kon (PTH1R; NanoBRET; pH 7.5, HEPES buffer): 760000 ± 100000 M⁻¹ s⁻¹
CC1=CC(=O)CC(C)(C)C1(O)C=CC(C)O (stereo not drawn) — kon (Alpha-mannosidase; surface plasmon resonance; 25 °C): 4.76 M⁻¹ s⁻¹
CC(C)[C@H](NC(=O)[C@H](CCCCN)NC(=O)[C@H](C)NC(=O)[C@H](CCCCN)NC(=O)CNC(=O)[C@H](CS)NC(=O)[C@@H](NC(=O)[C@H](CCCCN)NC(=O)[C@@H](N)CO)[C@@H](C)O)C(=O)N[C@H](C(=O)NCC(=O)N[C@@H](CCCNC(=N)N)C(=O)N[C@@H](Cc1c[nH]c2ccccc12)C(=O)N[C@@H](CCCCN)C(=O)O)[C@@H](C)O — kon (ACTA1; SPR; pH 7): 1450 M⁻¹ s⁻¹
CC[C@H](C)[C@H](NC(=O)[C@H](CCC(=O)O)NC(=O)[C@H](CO)NC(=O)[C@@H](NC(=O)[C@@H](N)CO)C(C)C)C(=O)N[C@@H](CCC(N)=O)C(=O)N[C@@H](CC(C)C)C(=O)N[C@@H](CCSC)C(=O)N[C@@H](Cc1c[nH]cn1)C(=O)N[C@@H](CC(N)=O)C(=O)N[C@@H](CC(C)C)C(=O)NCC(=O)N[C@@H](CCCCN)C(=O)N[C@@H](Cc1c[nH]cn1)C(=O)N[C@@H](CC(C)C)C(=O)N[C@@H](CC(N)=O)C(=O)N[C@@H](CO)C(=O)N[C@@H](CCSC)C(=O)N[C@@H](CCC(=O)O)C(=O)N[C@@H](CCCNC(=N)N)C(=O)N[C@H](C(=O)N[C@@H](CCC(=O)O)C(=O)N[C@@H](Cc1c[nH]c2ccccc12)C(=O)N[C@@H](CC(C)C)C(=O)N[C@@H](CCCNC(=N)N)C(=O)N[C@@H](CCCCN)C(=O)N[C@@H](CCCCN)C(=O)N[C@@H](CC(C)C)C(=O)N[C@@H](CCC(N)=O)C(=O)N[C@@H](CC(=O)O)C(=O)N[C@H](C(=O)N[C@@H](Cc1c[nH]cn1)C(=O)N[C@@H](CCCCNC(=O)c1ccc2c(c1)C1(OC2=O)c2ccc(N(C)C)cc2Oc2cc(N(C)C)ccc21)C(=O)N[C@@H](Cc1ccccc1)C(N)=O)C(C)C)C(C)C — kon (PTH1R; NanoBRET; HEK293 stably expressing receptor; room temperature, 0.02% sodium azide, added: 5 µM coelenterazine h): 400000 ± 60000 M⁻¹ s⁻¹
CC(=O)C=C=C1C(C)(C)C[C@H](O)C[C@@]1(C)O — kon (Alpha-mannosidase; surface plasmon resonance; 25 °C): 6.12 M⁻¹ s⁻¹

A few entries again:
C[C@@H](O)[C@@H]1NC(=O)[C@H](CCCNC(=N)N)NC(=O)[C@H](CCCCN)NC(=O)[C@H](CC(N)=O)NC(=O)CNC(=O)[C@@H](N)C[Se][Se]C[C@@H](C(=O)O)NC(=O)CNC(=O)[C@H](CCCNC(=N)N)NC1=O — kon (C1QBP (Homo sapiens, UniProt Q07021); SPR): 30900 M⁻¹ s⁻¹
